Measured values from different studies.
Protocols differ between the studies behind these lines.
Target: Serine/threonine-protein kinase 33 (STK33, Homo sapiens, UniProt Q9BYT3)
UniProt Q9BYT3, sequence (whole entry, looked up): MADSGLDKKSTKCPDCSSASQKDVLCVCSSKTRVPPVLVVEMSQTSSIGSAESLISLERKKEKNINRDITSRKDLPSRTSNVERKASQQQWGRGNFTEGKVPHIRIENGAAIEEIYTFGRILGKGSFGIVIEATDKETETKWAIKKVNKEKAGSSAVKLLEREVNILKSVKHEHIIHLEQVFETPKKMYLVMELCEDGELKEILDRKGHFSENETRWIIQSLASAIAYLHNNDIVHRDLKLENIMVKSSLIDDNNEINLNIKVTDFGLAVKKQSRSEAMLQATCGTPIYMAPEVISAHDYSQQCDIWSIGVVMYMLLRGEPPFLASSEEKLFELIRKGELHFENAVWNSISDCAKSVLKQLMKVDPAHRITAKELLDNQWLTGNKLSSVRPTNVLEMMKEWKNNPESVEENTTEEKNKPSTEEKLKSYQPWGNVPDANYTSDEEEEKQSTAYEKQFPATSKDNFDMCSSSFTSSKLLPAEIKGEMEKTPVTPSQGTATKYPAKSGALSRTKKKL

Compound | assay | system | conditions | scale | endpoint | value
Nc1ncc2c(n1)-c1c([nH]c3ccc(C4=CCOCC4)cc13)CCC2 | binding, competition with immobilised ligand |  | 1 µM |  | remaining binding | 100%
NC(=O)[C@@H](O)C[C@H]1CCc2sc3ncnc(O[C@H]4CC[C@H](N5CCOCC5)CC4)c3c21 | enzyme activity, inhibitor |  | 10 µM |  | inhibition | 26%
O=C(Cc1ccc(OCc2ccccc2)cc1)NC1(C(=O)O)CCN(C(=O)c2ccc(-c3cccc(Cl)c3)cc2)CC1 | enzyme activity, inhibitor |  | 10 µM |  | activity vs control | 121%
C=CC(=O)N1CCc2ccc(-n3c(=O)ccc4cnc5ccc(-c6cnn(C)c6)cc5c43)cc21 | KINOMEscan |  | 1 µM | reference: DMSO control | remaining binding | 100%
CN1CCN(Cc2ccc(-c3ccc(CO[C@H]4CCC[C@@H]4NC(=O)c4cc(-c5cnn(C)c5)cnc4N)cc3)cc2)CC1 | enzyme activity, inhibitor |  | 0.1 µM |  | inhibition | -2%
Cc1ccc(C(=O)Nc2ccc(CN3CCN(C)CC3)c(C(F)(F)F)c2)cc1C#Cc1cnc2cccnn12 | target engagement, NanoBRET | human cells |  |  | upper asymptote | -1.3
O=C=[N][Ru-4]123([n]4c5ccc(O)cc5c5c6c(c7cc(F)c[n+]1c7c54)C(=O)NC6=O)[S+]1CC[S+]2CC[S+]3CC1 (stereo not drawn) | enzyme activity |  | 100 nM, human enzyme, added: 10 µM ATP | reference: untreated | remaining activity | 100%
Cc1c[nH]c2nccc(-c3ccc(C(=O)N[C@@H]4c5c(F)cc(C(F)F)cc5C[C@@H]4O)cn3)c12 | binding, competition with immobilised ligand |  | 3 µM |  | remaining binding | 8%
CNC(=O)C1CCN(c2cc(C)c(F)cc2NC(=O)c2ccc(-c3cc(O)ccc3C)c(C)c2)CC1 | binding, competition with immobilised ligand |  | 1 µM |  | remaining binding | 81%
CN1CC[C@@H](COc2cnc(C#N)cc2-c2ccn3nc(NC(=O)C4CC4)cc3c2)C1 | enzyme activity, inhibitor |  | 1 µM |  | inhibition | -5%
COc1cc(Nc2nc(C)cc(-c3cnn4nc(OC)ccc34)n2)cc(C(F)(F)F)c1 | binding, competition with immobilised ligand |  | 1 µM |  | remaining binding | 94%
CCN1CCN(Cc2ccc(C(=O)Nc3ccc(C)c(NCc4cnc5[nH]ccc5c4OC)c3)cc2C(F)(F)F)CC1 | binding, competition with immobilised ligand |  | 1 µM |  | remaining binding | 58%
CCn1cc(C(=O)O)c(=O)c2c(N)c(F)c(NC3CCCCC3)cc21 | kinase activity |  | 0.1 µM, added: ATP at Km |  | inhibition | -4.5%
CCN1CCN(Cc2ccc(NC(=O)c3ccc(C)c(NC(=O)c4cncc(-c5cccs5)c4)c3)cc2C(F)(F)F)CC1 | binding, competition with immobilised ligand |  | 1 µM |  | remaining binding | 36%
CNC(=O)C[C@H](Cc1ccc(C#N)cc1)NC(=O)c1cc(-c2ccc(CN[C@H](C)c3ccc(C)cc3)o2)ccc1Cl | enzyme activity, inhibitor |  | 1 µM |  | activity vs control | 99%
